# Experimental data from different studies.
# Protocols differ between the studies behind these lines. ± gives the spread as reported.
# Neuronal acetylcholine receptor; alpha4/beta2: Neuronal acetylcholine receptor; alpha4/beta2 (Homo sapiens, UniProt P17787+P43681)
# UniProt P43681, sequence (whole entry, unmodified, looked up): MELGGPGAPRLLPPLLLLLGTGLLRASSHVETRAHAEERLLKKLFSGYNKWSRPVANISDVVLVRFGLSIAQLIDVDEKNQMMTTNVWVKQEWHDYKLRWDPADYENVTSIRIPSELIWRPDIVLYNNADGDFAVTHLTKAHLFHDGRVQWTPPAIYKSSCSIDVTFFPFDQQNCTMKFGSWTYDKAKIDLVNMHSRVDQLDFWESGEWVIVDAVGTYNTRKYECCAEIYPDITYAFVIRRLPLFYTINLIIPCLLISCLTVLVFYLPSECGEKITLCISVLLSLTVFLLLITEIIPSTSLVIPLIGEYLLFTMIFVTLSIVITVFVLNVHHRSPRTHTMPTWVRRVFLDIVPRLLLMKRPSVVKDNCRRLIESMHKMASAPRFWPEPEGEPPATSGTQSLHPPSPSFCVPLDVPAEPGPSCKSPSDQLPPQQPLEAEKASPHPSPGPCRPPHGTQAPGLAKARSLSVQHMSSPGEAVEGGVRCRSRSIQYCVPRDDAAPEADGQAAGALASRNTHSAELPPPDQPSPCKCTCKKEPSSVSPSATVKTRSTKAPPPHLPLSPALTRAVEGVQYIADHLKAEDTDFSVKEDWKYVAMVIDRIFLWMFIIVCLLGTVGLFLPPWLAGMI
# UniProt P17787, sequence (whole entry, unmodified, looked up): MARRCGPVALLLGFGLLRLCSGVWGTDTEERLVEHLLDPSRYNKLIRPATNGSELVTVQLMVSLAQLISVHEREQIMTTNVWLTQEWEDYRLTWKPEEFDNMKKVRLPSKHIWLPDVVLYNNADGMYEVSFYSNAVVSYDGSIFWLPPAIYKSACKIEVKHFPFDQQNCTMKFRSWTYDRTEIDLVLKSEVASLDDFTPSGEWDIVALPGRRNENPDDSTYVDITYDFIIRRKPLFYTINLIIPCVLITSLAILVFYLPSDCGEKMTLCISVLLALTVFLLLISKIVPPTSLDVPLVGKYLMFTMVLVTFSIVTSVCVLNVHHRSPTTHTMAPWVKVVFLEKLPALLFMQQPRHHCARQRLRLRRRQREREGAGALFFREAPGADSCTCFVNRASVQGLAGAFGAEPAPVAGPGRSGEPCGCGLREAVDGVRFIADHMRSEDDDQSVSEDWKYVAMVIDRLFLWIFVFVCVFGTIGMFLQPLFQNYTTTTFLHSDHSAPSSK
# nadD: Probable nicotinate-nucleotide adenylyltransferase (nadD, Mycobacterium tuberculosis, UniProt P9WJJ5)
# UniProt P9WJJ5, sequence (whole entry, looked up): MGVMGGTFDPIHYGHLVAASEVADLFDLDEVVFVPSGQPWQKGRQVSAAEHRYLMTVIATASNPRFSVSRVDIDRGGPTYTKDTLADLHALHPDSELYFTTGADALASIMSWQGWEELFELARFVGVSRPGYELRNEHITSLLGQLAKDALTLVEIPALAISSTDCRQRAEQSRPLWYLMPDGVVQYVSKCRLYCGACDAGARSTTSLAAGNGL
# HTR2C: 5-hydroxytryptamine receptor 2C (HTR2C, Homo sapiens, UniProt P28335)
# UniProt P28335, sequence (whole entry, looked up): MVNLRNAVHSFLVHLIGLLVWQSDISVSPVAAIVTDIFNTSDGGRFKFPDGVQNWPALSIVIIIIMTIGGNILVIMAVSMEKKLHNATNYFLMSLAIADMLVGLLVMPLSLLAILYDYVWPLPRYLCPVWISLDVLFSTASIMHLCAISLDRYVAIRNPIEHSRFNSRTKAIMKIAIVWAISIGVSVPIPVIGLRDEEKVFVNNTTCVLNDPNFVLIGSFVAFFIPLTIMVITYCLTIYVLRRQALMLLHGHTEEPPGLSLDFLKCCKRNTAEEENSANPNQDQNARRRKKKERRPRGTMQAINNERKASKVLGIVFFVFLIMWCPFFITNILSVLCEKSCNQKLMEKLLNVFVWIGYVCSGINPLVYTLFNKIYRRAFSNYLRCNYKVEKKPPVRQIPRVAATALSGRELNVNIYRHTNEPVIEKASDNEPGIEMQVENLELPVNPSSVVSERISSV
# SLC6A4: Sodium-dependent serotonin transporter (SLC6A4, Homo sapiens, UniProt P31645)
# UniProt P31645, sequence (whole entry, looked up): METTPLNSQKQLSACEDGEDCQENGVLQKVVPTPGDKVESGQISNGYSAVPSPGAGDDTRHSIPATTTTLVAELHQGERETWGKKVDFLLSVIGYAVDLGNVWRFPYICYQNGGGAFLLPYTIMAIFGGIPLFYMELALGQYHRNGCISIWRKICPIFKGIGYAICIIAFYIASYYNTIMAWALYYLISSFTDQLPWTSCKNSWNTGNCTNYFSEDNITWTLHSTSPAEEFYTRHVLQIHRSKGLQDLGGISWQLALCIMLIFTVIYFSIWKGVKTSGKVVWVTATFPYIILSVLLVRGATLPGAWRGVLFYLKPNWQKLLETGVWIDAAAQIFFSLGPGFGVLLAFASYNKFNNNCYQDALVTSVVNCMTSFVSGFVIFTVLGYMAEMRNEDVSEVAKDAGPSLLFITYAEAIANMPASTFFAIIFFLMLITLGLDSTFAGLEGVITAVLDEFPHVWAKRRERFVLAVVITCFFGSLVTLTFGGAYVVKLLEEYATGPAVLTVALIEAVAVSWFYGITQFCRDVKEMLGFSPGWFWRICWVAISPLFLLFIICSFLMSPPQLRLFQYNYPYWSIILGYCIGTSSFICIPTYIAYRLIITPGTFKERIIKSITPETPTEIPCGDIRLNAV
# UniProt Q9NRN7, sequence (whole entry, looked up): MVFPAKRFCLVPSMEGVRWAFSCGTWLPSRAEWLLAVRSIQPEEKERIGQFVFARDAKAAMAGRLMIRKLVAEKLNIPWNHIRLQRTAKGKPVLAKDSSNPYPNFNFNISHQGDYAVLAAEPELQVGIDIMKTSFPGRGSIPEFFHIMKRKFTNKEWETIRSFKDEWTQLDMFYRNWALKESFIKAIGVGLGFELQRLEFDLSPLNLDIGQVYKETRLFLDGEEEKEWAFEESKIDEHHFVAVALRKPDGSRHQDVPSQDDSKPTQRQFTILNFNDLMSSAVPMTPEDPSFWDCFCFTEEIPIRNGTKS
# UniProt Q61327, sequence (whole entry, looked up): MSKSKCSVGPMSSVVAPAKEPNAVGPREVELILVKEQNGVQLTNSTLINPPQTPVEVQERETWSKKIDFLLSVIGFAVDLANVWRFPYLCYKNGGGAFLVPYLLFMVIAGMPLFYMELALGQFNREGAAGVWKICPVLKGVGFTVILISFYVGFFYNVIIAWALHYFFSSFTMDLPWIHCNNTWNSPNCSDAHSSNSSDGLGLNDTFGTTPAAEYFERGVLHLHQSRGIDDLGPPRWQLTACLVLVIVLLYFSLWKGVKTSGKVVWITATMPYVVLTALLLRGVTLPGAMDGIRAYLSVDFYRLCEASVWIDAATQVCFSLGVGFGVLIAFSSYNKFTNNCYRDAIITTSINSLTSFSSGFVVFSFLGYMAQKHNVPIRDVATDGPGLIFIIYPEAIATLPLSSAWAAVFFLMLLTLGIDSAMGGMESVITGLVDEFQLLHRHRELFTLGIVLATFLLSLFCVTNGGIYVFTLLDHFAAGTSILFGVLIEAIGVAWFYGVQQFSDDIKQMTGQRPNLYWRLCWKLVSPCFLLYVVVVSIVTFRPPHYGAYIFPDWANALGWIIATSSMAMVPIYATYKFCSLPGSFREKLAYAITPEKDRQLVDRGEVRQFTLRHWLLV
Structure (SMILES),tested on,test,system,setting,endpoint,value
COCCC1CC2CN3CCc4c([nH]c5ccccc45)C(C(=O)OC)(C2)C13 (racemic),Neuronal acetylcholine receptor; alpha4/beta2,"calcium influx, antagonist",HEK293-hα4β2,"5 min, added: (±)-epibatidine 0.1 µM",IC50,6.3 ± 1.3 µM
Cc1ccc(OCc2n(CC(=O)OC3CC(C)CCC3C(C)C)c3ccccc3[n+]2C)cc1 (stereo not drawn),nadD,released PPi detection,,,IC50,19.5 ± 2.5 µM
CCCC(C(=O)c1ccc2ccccc2c1)N1CCCC1 (stereo not drawn),HTR2C,"inositol phosphate, antagonist",,,IC50,> 1000 µM
O=c1[nH]c2ccccc2n1C1CCN(CCCC(c2ccc(F)cc2)c2ccc(F)cc2)CC1,"Voltage-dependent T-type calcium channel subunit alpha-1H (CACNA1H, Homo sapiens, UniProt O95180)","calcium current, blocker, automated patch clamp",,"tonic block, holding -90 mV",IC50,7.2 ± 1.2 µM
CNC(C)C(=O)c1ccccc1 (stereo not drawn),HTR2C,"inositol phosphate, antagonist",,,IC50,> 1000 µM
CCn1cc(C(=O)NCC(C)C)c(=O)c2cc(F)c(N3CCN(C(=O)c4ccco4)CC3)cc21,nadD,"enzyme activity, inhibitor, released pyrophosphate",,,IC50,24.8 ± 4 µM
NC(N)=Nc1ccc2[nH]c3c(c2c1)C[C@@]1(O)[C@H]2Cc4ccc(O)c5c4[C@@]1(CCN2CC1CC1)[C@H]3O5,"L-aminoadipate-semialdehyde dehydrogenase-phosphopantetheinyl transferase (AASDHPPT, Homo sapiens, UniProt Q9NRN7)","phosphopantetheinylation, inhibitor, fluorescence polarization",,"45 min, pH 7.6, 10% DMSO, added: VibB 10 µM and rhodamine-CoA 5 µM",IC50,> 100 µM
CN1[C@H]2CC[C@@H]1[C@@H](C(=O)Oc1ccccc1)[C@@H](c1ccc(Cl)cc1)C2,"Sodium-dependent dopamine transporter (Slc6a3, Mus musculus, UniProt Q61327)","transporter uptake, inhibitor, radiometric",,,IC50,0.00065 µM
C[C@]12CC[C@@H](O)C[C@@H]1CC[C@H]1[C@@H]3CC[C@H](C=O)[C@@]3(C)CC(=O)[C@@H]12,GABAA receptor picrotoxin site,,,,IC50,0.77 ± 0.098 µM
CCC1=C[C@@H]2CN3CCc4c([nH]c5ccccc45)[C@@](C(=O)OC)(C2)[C@@H]13,Neuronal acetylcholine receptor; alpha4/beta2,"calcium influx, antagonist",HEK293-hα4β2,"5 min, added: (±)-epibatidine 0.1 µM",IC50,12.6 ± 1.8 µM
CCCC(C(=O)c1ccc2c(c1)OCO2)N(C)C (stereo not drawn),SLC6A4,"transporter uptake, inhibitor, radiometric",,,IC50,2.57 µM
CCn1cc(C(=O)NCC2CCCO2)c(=O)c2cc(F)c(N3CCN(C(=O)c4ccco4)CC3)cc21 (stereo not drawn),nadD,"enzyme activity, inhibitor, released pyrophosphate",,,IC50,> 100 µM
CCNC(C)C(=O)c1ccc(Cl)cc1 (stereo not drawn),SLC6A4,"transporter uptake, inhibitor, radiometric",,,IC50,0.36 µM
Ic1cncc(OC[C@@H]2CCN2)c1,"Neuronal acetylcholine receptor; alpha4/beta2 (Homo sapiens, UniProt P17787+P43681, F144Q)","binding, inhibitor",,"5 h, room temperature, added: 5 nM [3H]epibatidine",IC50,0.04 ± 0.0019 µM
CCn1cc(C(=O)NCc2ccccc2Cl)c(=O)c2cc(F)c(N3CCN(C(=O)c4ccco4)CC3)cc21,nadD,"enzyme activity, inhibitor, released pyrophosphate",,,IC50,5.3 ± 1.8 µM
CCCCCc1cc(O)c2c(c1)OC(C)(C)c1ccc(C)cc1-2,rat intestinal α-glucosidase,"enzyme activity, inhibitor",,,IC50,350 µM
CCn1cc(C(=O)NCCC(C)C)c(=O)c2cc(F)c(N3CCN(C(=O)c4ccco4)CC3)cc21,nadD,"enzyme activity, inhibitor, released pyrophosphate",,,IC50,17.4 ± 3.4 µM
CN[C@@](C)(C[18F])C(=O)O,A549 tumour model,,"host not given, heart","15 min, tumour-bearing",tracer uptake,3.2 %ID/g

# Excerpt of the above:
Structure (SMILES),tested on,test,system,setting,endpoint,value
CCCC(C(=O)c1ccc2c(c1)OCO2)N(C)C (stereo not drawn),SLC6A4,"transporter uptake, inhibitor, radiometric",,,IC50,2.57 µM
